Measurements collected from several papers.
A part holds a random share of what one study measured. Values joined by “and” are separate records of one study, mostly repeats; a detail may differ. pIC50: −log10 of the molar value.
UniProt Q99640, sequence (whole entry, looked up): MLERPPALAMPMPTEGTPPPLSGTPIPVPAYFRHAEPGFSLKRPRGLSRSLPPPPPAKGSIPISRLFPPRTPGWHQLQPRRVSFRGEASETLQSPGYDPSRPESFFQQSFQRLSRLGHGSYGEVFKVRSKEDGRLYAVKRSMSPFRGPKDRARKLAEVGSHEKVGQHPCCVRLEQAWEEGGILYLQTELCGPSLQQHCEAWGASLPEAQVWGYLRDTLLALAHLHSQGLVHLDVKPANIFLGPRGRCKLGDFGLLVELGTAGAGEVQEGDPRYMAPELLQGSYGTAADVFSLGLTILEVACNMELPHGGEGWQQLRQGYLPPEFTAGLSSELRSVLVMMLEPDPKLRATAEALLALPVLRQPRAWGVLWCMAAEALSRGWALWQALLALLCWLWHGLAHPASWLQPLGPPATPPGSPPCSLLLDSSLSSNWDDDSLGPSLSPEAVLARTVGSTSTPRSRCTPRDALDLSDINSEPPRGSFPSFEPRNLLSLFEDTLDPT

Study 1 — effect on: thermal unfolding; method: differential scanning fluorimetry; tested at: 5.5 µM; reading: higher = more unfolded
Structure (SMILES): C[C@@H]1CN(c2ccc(-c3cc(C(=O)NCCOCCOCCOCCOCCNC(=O)/C=C/c4[nH]cc(C(=O)N[C@@H](CC(N)=O)c5ccc(F)c(Cl)c5)c4-c4ccc(Cl)cc4F)ccc3F)cc2NC(=O)c2c[nH]c(=O)cc2C(F)(F)F)C[C@H](C)N1C
DCAF1: DDB1- and CUL4-associated factor 1 (DCAF1, Homo sapiens, UniProt Q9Y4B6)
UniProt Q9Y4B6, sequence (whole entry, looked up): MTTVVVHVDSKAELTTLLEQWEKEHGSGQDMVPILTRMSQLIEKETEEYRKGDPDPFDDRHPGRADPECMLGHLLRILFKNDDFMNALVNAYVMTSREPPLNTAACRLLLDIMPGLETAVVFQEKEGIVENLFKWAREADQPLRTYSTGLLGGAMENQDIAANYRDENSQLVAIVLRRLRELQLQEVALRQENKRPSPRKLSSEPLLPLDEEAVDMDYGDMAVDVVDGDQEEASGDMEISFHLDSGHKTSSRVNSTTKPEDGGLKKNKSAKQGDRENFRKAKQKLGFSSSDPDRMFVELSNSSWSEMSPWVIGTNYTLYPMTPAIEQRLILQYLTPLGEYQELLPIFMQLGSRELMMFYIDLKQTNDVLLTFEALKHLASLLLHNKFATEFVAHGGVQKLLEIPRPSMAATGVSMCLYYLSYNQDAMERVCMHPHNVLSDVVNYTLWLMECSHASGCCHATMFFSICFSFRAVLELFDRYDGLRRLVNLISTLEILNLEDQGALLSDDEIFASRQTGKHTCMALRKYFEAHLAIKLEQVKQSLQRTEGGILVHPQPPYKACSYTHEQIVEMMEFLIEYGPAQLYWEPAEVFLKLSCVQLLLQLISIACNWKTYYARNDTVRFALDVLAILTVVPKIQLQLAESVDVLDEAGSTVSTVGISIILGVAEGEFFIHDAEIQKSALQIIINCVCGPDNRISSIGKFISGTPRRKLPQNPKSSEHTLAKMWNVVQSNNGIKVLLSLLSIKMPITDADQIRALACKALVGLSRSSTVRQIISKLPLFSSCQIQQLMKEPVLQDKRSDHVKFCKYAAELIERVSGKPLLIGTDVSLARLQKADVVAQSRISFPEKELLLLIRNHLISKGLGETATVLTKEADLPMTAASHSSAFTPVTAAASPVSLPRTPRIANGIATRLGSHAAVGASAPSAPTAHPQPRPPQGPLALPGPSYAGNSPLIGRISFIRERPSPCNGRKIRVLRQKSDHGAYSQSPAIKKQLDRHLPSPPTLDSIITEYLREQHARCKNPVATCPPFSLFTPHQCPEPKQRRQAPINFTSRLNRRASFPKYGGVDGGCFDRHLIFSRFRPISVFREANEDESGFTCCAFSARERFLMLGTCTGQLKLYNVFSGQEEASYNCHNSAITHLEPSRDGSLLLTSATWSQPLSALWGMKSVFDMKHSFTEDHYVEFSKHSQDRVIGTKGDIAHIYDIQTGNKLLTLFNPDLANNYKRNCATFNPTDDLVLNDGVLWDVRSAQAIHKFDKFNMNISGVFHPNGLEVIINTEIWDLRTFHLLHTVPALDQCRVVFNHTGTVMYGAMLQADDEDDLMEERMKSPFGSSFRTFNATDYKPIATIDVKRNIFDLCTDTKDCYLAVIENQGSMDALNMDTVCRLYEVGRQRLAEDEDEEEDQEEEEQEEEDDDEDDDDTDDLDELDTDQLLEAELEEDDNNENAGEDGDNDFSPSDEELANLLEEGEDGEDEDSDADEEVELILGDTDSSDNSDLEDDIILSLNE
WDR5: WD repeat-containing protein 5 (WDR5, Homo sapiens, UniProt P61964)
| target | temperature | SYPRO Orange fluorescence |
| --- | --- | --- |
| DCAF1 | 90.61 °C | 34400 a.u. |
| WDR5 | 63.81 °C | 14000 a.u. |
| DCAF1 | 65.61 °C | 59300 a.u. |
| DCAF1 | 75.81 °C | 49100 a.u. |
| WDR5 | 52.61 °C | 16800 a.u. |
| WDR5 | 41 °C | 14200 a.u. |
| WDR5 | 56.41 °C | 16700 a.u. |
| WDR5 | 54.41 °C | 16800 a.u. |
| WDR5 | 58.81 °C | 16100 a.u. |

Other studies, line by line
MPO: Myeloperoxidase (MPO, Homo sapiens, UniProt P05164)
UniProt P05164, sequence (whole entry, looked up): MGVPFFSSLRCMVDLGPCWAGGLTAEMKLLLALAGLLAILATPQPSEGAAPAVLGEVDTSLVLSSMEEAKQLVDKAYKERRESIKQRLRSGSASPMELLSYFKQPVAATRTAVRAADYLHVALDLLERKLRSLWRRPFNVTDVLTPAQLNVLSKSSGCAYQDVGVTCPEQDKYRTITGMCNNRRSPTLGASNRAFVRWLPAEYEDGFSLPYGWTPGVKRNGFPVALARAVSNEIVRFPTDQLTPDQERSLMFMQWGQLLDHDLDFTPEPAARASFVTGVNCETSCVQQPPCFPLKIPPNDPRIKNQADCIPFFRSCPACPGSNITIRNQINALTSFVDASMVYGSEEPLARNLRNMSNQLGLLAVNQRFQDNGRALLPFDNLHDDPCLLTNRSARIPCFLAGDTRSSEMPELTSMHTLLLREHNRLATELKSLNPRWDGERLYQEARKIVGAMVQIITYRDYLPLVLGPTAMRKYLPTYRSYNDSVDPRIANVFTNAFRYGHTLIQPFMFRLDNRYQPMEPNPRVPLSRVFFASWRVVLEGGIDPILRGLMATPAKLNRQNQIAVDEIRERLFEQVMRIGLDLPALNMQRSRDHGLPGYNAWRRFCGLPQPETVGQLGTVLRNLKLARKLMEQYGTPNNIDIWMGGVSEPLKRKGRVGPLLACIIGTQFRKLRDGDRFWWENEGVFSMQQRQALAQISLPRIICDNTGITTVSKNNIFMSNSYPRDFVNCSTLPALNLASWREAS
| Structure (SMILES) | tested on | test | test system | conditions | scale | quantity | result |
| --- | --- | --- | --- | --- | --- | --- | --- |
| NC/C(=C\F)COc1cccc(Cn2c(=S)[nH]c(=O)c3[nH]cnc32)c1 |  |  | human whole blood | 1 h |  | blood to plasma ratio | 0.99 |
| Cc1ncsc1-c1ccc(C(CO)NC(=O)C2CC(O)CN2C(=O)C(NC(=O)c2ccc(COc3c(-c4c(C)c(F)cc5[nH]ncc45)c(C4CC4)cc4c(N5CC6CC5CN6)nc(OC5CCOCC5)nc34)cc2)C(C)C)cc1 (centres unmarked) | ASPC1 | cell growth or viability, ATP luminescence |  | 0.3 µM, 6 days |  | viability | 38% and 25.4% and 25.5% and 29.8% and 33.3% and 25.2% |
| Cc1ccc(O)c(C)c1-c1cnc2[nH]c(-c3cnc(N4CCC(CN5CCN(c6cc7c(cc6F)c(N6CCC(=O)NC6=O)nn7C)CC5)CC4)nc3)cc2c1C#N |  |  | female CD-1 mouse, plasma | intravenous, 1 mg/kg |  | clearance | 30.7 mL/min/kg |
| Cc1ncsc1-c1ccc(C2(NC(=O)C3CC(O)CN3C(=O)C(NC(=O)c3ccc(COc4c(-c5c(C)c(F)cc6[nH]ncc56)c(C5CC5)cc5c(N6CC7CC6CN7)nc(OC6CCOCC6)nc45)cc3)C(C)C)CC2)cc1 (centres unmarked) | GTPase KRas (KRAS, Homo sapiens, UniProt P01116, G12D) | degrader, In-Cell ELISA | AsPC-1 (KRAS G12D) | 24 h, geometric mean |  | DC50 | 181 nM |
| NC/C(=C\F)COc1cccc(Cn2c(=S)[nH]c(=O)c3[nH]ccc32)c1 | MPO | enzyme activity, inhibitor, fluorescence |  |  |  | pIC50 | 7.85 |
| Cc1ccc(O)c(C)c1-c1cnc2[nH]c(-c3cnc(N4CCC5(CC4)CC(N4CCN(c6ccc(NC7CCC(=O)NC7=O)cc6F)CC4)CO5)nc3)cc2c1C#N (centres unmarked) | PKMYT1 (Homo sapiens, UniProt Q99640) |  | HCC1599 | 37.04 nM |  | degradation | 79% |
| CC(C)(C)NC(=O)c1ccc(OC/C(=C/F)CN)cc1 | MPO | enzyme activity, inhibitor, fluorescence |  | 0.1235 µM |  | inhibition | -14.3% and -8.21% and -10.9% |
| Cc1ccc(O)c(C)c1-c1cnc2[nH]c(-c3cnc(N4CCC(CN5CCN(c6ccc(NC7CCC(=O)NC7=O)cc6F)CC5)CC4)nc3)cc2c1C#N (centres unmarked) |  |  | Caco-2 | 2 µM, 2 h, pH 7.4 |  | Papp A→B | 0.31 ×10⁻⁶ cm/s |
| COc1cc(C(=O)OCCCN2CCCN(CCCOC(=O)c3cc(OC)c(OC)c(OCc4ccc([N+](=O)[O-])cc4)c3)CC2)cc(OC)c1OC |  |  | male mouse, formalin pain | intrathecal, 1 nmol, 0-10 min |  | licking and flinching duration | 195 s and 281 s and 170 s and 206 s |
| Cc1ccc(O)c(C)c1-c1cnc2[nH]c(-c3cnc(N)nc3)cc2c1C#N | BRAF | KINOMEscan |  | 1000 nM | relative to: control | remaining binding | 2.6% |
| Cc1ncsc1-c1ccc(C(CO)NC(=O)C2CC(O)CN2C(=O)C(C(C)C)n2cc(-c3ccc(COc4c(-c5c(C)c(F)cc6[nH]ncc56)c(C5CC5)cc5c(N6CC7CC6CN7)nc(OC6CCOCC6)nc45)cc3)nn2)cc1 (centres unmarked) |  |  | mouse PK-59 xenograft, plasma | intravenous, 10 mg/kg, 144 h |  | plasma concentration | 0 ng/mL |

A few entries again (other studies, line by line):
| Structure (SMILES) | tested on | test | test system | conditions | scale | quantity | result |
| --- | --- | --- | --- | --- | --- | --- | --- |
| Cc1ccc(O)c(C)c1-c1cnc2[nH]c(-c3cnc(N4CCC5(CC4)CC(N4CCN(c6ccc(NC7CCC(=O)NC7=O)cc6F)CC4)CO5)nc3)cc2c1C#N (centres unmarked) | PKMYT1 (Homo sapiens, UniProt Q99640) |  | HCC1599 | 37.04 nM |  | degradation | 79% |
| CC(C)(C)NC(=O)c1ccc(OC/C(=C/F)CN)cc1 | MPO | enzyme activity, inhibitor, fluorescence |  | 0.1235 µM |  | inhibition | -14.3% and -8.21% and -10.9% |
